Experimental data gathered from unrelated publications.
Sequence of UniProt P11388 (whole entry, looked up): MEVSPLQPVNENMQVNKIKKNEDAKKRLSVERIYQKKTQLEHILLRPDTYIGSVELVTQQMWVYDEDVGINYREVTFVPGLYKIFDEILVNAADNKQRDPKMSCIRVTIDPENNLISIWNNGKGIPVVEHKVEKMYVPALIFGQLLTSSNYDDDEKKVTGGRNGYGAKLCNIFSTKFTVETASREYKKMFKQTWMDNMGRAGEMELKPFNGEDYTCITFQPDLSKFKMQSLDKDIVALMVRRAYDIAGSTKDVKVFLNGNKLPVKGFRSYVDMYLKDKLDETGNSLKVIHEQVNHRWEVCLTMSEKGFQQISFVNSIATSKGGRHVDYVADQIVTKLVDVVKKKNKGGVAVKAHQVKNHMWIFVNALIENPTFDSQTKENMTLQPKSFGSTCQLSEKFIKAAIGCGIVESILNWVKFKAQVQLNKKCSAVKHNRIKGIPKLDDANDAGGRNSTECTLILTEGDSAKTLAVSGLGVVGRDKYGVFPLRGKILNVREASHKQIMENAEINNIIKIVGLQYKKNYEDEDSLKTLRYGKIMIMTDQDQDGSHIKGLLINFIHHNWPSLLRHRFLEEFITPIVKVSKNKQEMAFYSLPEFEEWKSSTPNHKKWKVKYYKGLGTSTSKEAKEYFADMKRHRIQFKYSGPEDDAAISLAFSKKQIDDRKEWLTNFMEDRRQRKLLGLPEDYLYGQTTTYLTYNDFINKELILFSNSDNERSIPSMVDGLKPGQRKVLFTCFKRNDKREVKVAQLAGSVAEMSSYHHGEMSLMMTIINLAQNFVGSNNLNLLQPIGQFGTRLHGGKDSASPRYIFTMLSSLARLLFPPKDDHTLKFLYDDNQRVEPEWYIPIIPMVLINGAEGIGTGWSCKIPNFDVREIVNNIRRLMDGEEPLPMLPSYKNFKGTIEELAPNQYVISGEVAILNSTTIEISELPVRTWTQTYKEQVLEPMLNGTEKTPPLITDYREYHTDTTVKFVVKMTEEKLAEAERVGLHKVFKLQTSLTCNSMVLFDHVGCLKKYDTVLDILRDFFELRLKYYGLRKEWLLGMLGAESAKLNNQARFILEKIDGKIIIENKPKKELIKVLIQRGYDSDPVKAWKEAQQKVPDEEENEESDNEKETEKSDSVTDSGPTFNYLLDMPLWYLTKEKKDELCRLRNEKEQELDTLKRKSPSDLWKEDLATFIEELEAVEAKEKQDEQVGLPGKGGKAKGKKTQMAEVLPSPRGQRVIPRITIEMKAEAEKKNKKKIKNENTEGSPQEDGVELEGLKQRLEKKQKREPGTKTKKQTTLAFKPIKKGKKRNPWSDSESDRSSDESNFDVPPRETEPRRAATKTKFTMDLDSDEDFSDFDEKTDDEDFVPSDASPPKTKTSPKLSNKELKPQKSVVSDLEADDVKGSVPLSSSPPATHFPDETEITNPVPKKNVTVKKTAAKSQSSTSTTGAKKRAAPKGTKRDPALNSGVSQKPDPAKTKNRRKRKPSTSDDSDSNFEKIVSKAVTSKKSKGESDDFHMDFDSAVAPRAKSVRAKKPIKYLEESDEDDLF

Structure (SMILES)	tested on	assay	system	setting	how to read	quantity	value
COC(=O)Nc1c(N)nc(-c2nn(Cc3ccccc3F)c3ncc(F)cc23)nc1N	–	–	humans, plasma	10 mg, phase I DDI study, alone	–	AUC	6120 ng·h/mL
COC(=O)Nc1c(N)nc(-c2nn(Cc3ccccc3F)c3ncc(F)cc23)nc1N	–	–	healthy men	oral, dose not given, multiple dose, with: sildenafil 25 mg	reference: with over without sildenafil	AUC ratio	1
COc1cc([C@@H]2c3cc4c(cc3[C@@H](O[C@@H]3O[C@@H]5CO[C@@H](C)O[C@H]5[C@H](O)[C@H]3O)[C@H]3COC(=O)[C@H]23)OCO4)cc(OC)c1O	TOP2A (Homo sapiens, UniProt P11388)	DNA cleavage	–	7.8 µM	–	mean linear DNA	8.76%
CC(C)(C(=O)N1CCOc2c(C#N)cncc2C1)C(F)F	–	item: injury, poisoning, procedural complications	human	oral, 10 mg once daily, 14 days, multiple ascending dose	–	subjects with adverse event	0%
N#CCC1CCN(c2nc(Nc3ccc(N4CCC(O)CC4)cc3)c3c(=O)[nH]ncc3n2)CC1	–	Olink multiplex, item: CDCP1	human, serum	80 mg, day 29, unit not given	reference: placebo	serum level change	-1.39
CC1COc2ccccc2N1C(=O)C(Cl)Cl (stereo not shown)	–	carboxylesterase hydrolysis	rhesus monkey, female, liver cytosol	5 µM, 30 min, pH 7.4, without GSH	–	enantiomeric fraction	0.4
CCn1c(=O)c(-c2cc(NC(=O)Nc3ccccc3)c(F)cc2Br)cc2cnc(NC)cc21	–	item: injury and poisoning	mild hepatic impairment	50 mg single dose	–	patients with grade 3+ TEAE	0%
Fc1ccccc1Cc1nc(-c2nc(C(F)(F)F)n[nH]2)cn2ccnc12	–	–	healthy human subjects, both sexes	oral, 10 mg, fasted	–	subjects with respiratory TEAEs	7.1%
O=C(Nc1nc2cccc(-c3ccc(CN4CCS(=O)(=O)CC4)cc3)n2n1)C1CC1	–	item: injury or procedural complication	rheumatoid arthritis patients	oral, 150 mg once daily, 4 weeks, any relatedness	–	patients with adverse event	6.7%
CO/N=C(\C(=O)N[C@@H]1C(=O)N2C(C(=O)O)=C(COC(C)=O)CS[C@H]12)c1csc(N)n1	Salmonella enterica serovar München	broth microdilution	clinical isolate RKI-No 419/14	–	–	MIC	> 16 µg/mL
Cc1cc(-c2nccc3c2ccn3CC(=O)Nc2ccc(-c3cnccn3)cn2)ccn1	–	–	healthy human volunteers	oral, 15 mg once daily, 14 days, multiple ascending dose	–	injury or procedural TEAEs	11.1%
COc1ccc([C@@H](O)c2cc(-c3ncnc4cc(N5CCOCC5)ccc34)c(F)cc2Cl)nn1	–	–	locally advanced rectal cancer patients	50 mg, with: capecitabine and radiotherapy	–	injury poisoning procedural TEAE	100%
Cc1cc(C)cc(S(=O)(=O)c2c(C(=O)NCCNS(=O)(=O)c3cccnc3)[nH]c3ccc(Cl)cc23)c1	Gag-Pol polyprotein, reverse transcriptase (gag-pol, Human immunodeficiency virus 1, UniProt P03366)	enzyme activity, inhibitor, ELISA	–	–	–	IC50	60 nM
